Measurements collected from several papers.
Numbered parts are unrelated; each lists some results of a single study. “And” joins repeats or separate records; there may be more than shown.
Sequence of UniProt P10721 (whole entry, unmodified, looked up): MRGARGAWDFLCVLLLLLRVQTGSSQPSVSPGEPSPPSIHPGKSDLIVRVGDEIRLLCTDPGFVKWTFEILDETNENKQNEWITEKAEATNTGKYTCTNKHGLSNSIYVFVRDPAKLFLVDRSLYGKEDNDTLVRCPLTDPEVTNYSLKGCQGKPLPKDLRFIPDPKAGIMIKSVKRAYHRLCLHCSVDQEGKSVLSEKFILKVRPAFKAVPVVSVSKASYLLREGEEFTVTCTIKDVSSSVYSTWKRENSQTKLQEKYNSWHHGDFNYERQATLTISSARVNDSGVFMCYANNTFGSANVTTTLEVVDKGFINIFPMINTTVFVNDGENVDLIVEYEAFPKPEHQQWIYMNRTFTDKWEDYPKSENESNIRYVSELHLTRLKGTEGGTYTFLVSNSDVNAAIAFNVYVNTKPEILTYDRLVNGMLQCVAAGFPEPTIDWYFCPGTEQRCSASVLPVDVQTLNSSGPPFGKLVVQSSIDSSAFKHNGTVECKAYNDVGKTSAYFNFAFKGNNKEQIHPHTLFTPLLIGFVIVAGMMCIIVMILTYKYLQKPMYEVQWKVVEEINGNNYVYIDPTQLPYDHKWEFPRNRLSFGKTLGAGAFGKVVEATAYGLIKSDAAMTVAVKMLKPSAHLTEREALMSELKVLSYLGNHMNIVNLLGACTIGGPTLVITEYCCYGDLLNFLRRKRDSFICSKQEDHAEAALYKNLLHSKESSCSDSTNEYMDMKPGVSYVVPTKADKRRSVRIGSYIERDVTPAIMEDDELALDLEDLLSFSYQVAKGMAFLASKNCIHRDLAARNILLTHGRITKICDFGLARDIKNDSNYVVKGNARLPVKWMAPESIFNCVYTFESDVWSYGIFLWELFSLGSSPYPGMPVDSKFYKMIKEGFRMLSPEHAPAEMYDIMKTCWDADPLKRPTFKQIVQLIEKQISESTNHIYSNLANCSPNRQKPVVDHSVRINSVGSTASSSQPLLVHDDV
Sequence of UniProt P23458 (whole entry, looked up): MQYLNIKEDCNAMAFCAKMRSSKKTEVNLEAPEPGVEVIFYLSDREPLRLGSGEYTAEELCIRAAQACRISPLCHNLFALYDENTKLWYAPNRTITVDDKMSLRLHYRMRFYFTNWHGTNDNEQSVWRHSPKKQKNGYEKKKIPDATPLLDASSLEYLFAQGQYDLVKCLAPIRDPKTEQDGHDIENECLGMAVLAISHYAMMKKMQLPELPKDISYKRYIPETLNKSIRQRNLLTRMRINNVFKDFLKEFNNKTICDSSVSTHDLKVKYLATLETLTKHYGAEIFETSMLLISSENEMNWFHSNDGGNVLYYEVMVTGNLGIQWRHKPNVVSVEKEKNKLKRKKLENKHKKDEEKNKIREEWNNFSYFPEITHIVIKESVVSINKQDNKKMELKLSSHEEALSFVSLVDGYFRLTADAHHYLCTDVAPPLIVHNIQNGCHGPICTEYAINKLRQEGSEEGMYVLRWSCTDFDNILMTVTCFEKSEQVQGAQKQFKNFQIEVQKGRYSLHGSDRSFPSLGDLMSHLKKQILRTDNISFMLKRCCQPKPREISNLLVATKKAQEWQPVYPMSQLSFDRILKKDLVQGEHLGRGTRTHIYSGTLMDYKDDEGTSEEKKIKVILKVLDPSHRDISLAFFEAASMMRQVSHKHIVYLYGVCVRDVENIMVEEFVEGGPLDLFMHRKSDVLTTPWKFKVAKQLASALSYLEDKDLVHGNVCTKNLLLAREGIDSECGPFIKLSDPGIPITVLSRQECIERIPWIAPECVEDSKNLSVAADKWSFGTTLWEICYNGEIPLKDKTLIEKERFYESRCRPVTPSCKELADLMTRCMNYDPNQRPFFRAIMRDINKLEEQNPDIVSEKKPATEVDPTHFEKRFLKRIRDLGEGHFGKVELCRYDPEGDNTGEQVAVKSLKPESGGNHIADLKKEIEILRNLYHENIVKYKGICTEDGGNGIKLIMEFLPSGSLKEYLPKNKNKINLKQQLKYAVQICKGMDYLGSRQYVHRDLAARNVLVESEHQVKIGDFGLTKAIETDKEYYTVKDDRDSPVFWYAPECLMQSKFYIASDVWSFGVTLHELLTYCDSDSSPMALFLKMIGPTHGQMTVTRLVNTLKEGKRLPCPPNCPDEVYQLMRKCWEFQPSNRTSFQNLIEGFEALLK
Sequence of UniProt Q9Y243 (whole entry, looked up): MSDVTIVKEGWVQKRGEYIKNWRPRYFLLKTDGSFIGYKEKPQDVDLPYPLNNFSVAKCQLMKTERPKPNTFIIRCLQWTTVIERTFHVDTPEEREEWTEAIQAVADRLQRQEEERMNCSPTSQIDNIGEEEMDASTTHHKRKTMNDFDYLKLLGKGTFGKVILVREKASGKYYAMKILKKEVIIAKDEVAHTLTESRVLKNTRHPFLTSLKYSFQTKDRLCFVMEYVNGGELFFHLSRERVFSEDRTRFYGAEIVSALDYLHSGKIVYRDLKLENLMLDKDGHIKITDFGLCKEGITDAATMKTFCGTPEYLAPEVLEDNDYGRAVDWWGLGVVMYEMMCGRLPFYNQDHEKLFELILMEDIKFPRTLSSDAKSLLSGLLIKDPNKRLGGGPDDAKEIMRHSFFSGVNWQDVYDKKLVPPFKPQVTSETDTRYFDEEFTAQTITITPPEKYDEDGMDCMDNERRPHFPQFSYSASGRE

Study 1 — mode: inhibitor; method: FLIPR membrane potential; cells: CHO-BC cells; tested at: 0.01 µM; setting: unit not given; baseline: uninhibited cells
Target: Sodium-dependent neutral amino acid transporter B(0)AT1 (SLC6A19, Homo sapiens, UniProt Q695T7)
Sequence of UniProt Q695T7 (whole entry, looked up): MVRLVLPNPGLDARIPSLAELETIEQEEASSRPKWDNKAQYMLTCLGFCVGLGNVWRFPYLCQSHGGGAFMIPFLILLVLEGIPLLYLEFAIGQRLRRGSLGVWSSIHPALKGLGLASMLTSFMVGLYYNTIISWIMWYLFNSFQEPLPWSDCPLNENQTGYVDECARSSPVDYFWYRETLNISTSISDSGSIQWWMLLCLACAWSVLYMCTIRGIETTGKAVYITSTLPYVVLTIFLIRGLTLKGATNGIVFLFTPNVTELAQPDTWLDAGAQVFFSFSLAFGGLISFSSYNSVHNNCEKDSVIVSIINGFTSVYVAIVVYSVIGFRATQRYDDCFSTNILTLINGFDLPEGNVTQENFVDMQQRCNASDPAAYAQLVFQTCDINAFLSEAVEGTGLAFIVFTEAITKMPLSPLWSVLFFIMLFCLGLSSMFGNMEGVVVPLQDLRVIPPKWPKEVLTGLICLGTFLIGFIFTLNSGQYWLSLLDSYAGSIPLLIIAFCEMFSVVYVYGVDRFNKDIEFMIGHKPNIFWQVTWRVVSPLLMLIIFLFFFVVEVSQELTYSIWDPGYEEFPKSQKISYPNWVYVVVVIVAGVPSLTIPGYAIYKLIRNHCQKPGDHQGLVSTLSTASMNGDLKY
Under “remaining transport activity”, `CCCNC(=O)COc1ccc(I)c(C)c1` is recorded as 0.829.
`Cc1cc(NCC(=O)NC(C)C)ccc1Br`: “remaining transport activity” 0.897.
For `CCNC(=O)COc1ccc(Br)c(C)c1`, “remaining transport activity” read 0.89.
For `Cc1cc(NCC(=O)NC(C)C)cc(C)c1Cl`, “remaining transport activity” read 1.04.
`CCNC(=O)COc1ccc(I)c(C)c1`: “remaining transport activity” 0.729.

Study 2 — read-out: thermal unfolding; method: differential scanning fluorimetry; tested at: 5.5 µM; reading: higher = more unfolded
SMILES: C[C@@H]1CN(c2ccc(-c3cc(C(=O)NCCOCCOCCOCCOCCOCCOCCNC(=O)/C=C/c4[nH]cc(C(=O)N[C@@H](CC(N)=O)c5ccc(F)c(Cl)c5)c4-c4ccc(Cl)cc4F)ccc3F)cc2NC(=O)c2ccc(F)cc2C(F)(F)F)C[C@H](C)N1C
WDR5: WD repeat-containing protein 5 (WDR5, Homo sapiens, UniProt P61964)
DCAF1: DDB1- and CUL4-associated factor 1 (DCAF1, Homo sapiens, UniProt Q9Y4B6)
Sequence of UniProt Q9Y4B6 (whole entry, looked up): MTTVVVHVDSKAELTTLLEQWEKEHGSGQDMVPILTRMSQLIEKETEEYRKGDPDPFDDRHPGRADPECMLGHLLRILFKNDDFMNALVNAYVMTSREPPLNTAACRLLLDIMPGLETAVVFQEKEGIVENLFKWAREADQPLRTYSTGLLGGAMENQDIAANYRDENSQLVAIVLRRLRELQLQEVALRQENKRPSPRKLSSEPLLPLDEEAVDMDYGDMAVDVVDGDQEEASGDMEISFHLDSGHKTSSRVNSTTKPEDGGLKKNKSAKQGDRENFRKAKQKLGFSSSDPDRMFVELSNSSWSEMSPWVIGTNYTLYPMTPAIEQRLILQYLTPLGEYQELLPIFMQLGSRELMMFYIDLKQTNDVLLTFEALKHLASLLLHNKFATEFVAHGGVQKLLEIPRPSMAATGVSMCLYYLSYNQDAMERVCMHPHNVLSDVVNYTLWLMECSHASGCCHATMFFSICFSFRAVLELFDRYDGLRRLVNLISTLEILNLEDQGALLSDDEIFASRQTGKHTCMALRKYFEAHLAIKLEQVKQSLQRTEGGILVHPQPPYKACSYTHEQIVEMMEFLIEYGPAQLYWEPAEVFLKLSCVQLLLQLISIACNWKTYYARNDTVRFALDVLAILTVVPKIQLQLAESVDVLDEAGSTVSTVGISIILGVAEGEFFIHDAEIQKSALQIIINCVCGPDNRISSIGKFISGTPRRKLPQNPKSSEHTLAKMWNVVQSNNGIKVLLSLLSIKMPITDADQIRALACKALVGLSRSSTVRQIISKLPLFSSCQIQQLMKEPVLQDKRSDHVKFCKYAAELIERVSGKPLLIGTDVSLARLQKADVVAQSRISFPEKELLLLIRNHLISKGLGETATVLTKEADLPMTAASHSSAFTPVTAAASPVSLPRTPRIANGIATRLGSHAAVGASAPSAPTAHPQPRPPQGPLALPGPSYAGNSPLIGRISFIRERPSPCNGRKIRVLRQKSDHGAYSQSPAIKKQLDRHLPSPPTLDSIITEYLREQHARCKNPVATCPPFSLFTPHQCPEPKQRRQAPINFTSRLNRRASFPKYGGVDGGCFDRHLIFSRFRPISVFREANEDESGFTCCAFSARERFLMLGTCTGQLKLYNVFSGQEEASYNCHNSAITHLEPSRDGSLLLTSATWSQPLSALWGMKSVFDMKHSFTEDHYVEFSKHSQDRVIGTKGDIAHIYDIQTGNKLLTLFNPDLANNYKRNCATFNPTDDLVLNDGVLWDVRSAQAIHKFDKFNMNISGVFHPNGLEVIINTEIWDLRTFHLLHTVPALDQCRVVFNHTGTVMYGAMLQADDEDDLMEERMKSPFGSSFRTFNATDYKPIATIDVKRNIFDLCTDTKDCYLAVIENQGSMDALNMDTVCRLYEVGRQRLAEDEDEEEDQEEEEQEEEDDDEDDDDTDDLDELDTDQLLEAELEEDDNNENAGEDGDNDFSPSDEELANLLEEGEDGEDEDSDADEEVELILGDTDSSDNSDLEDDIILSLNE
WDR5; 37.2 °C — “SYPRO Orange fluorescence”: 13800 a.u.
WDR5; 75.41 °C — “SYPRO Orange fluorescence”: 50400 a.u.
It gave 13200 a.u. for “SYPRO Orange fluorescence” (WDR5; 25.2 °C).
WDR5; 90.21 °C — “SYPRO Orange fluorescence”: 54800 a.u.
It gave 52400 a.u. for “SYPRO Orange fluorescence” (DCAF1; 61.81 °C).
WDR5; 38.6 °C — “SYPRO Orange fluorescence”: 13900 a.u.
The “SYPRO Orange fluorescence” was 10900 a.u. (DCAF1; 37.6 °C).
WDR5; 79.81 °C — “SYPRO Orange fluorescence”: 64400 a.u.
DCAF1; 34 °C — “SYPRO Orange fluorescence”: 9530 a.u.
WDR5; 40.6 °C — “SYPRO Orange fluorescence”: 14200 a.u.
The “SYPRO Orange fluorescence” was 46800 a.u. (DCAF1; 71.41 °C).

Study 3 — tested at: 1 µM
Structure (SMILES): CC[C@@]1(c2ccccc2)C2=C(CC(C)(C)CC2=O)Nc2n[nH]cc21
For CDKL5 (Homo sapiens, UniProt O76039); binding, competition with immobilised ligand: remaining binding read 100%.
The remaining binding was 100% (KIT (Homo sapiens, UniProt P10721, V559D); binding, competition with immobilised ligand).
It gave 98% for remaining binding (TNNI3K (Homo sapiens, UniProt Q59H18); binding, competition with immobilised ligand).
The remaining binding was 100% (BUB1 (Homo sapiens, UniProt O43683); binding, competition with immobilised ligand).
For TESK1 (Homo sapiens, UniProt Q15569); binding, competition with immobilised ligand: remaining binding read 100%.
For Ribosomal protein S6 kinase alpha-3, C-terminal kinase domain (RPS6KA3, Homo sapiens, UniProt P51812); binding, competition with immobilised ligand: remaining binding read 55%.
It gave 100% for remaining binding (PIK3CA (Homo sapiens, UniProt P42336, H1047Y); kinase binding, KINOMEscan; baseline: DMSO control).
The remaining binding was 95% (NTRK1 (Homo sapiens, UniProt P04629); binding, competition with immobilised ligand).
WNK3 (Homo sapiens, UniProt Q9BYP7); binding, competition with immobilised ligand — remaining binding: 100%.
It gave 100% for remaining binding (AKT3 (Homo sapiens, UniProt Q9Y243); binding, competition with immobilised ligand).
For eIF-2-alpha kinase GCN2, C-terminal kinase domain (EIF2AK4, Homo sapiens, UniProt Q9P2K8, S808G); binding, competition with immobilised ligand: remaining binding read 85%.
The remaining binding was 96% (MELK (Homo sapiens, UniProt Q14680); binding, competition with immobilised ligand).
MAP4K1 (Homo sapiens, UniProt Q92918); binding, competition with immobilised ligand — remaining binding: 72%.
The remaining binding was 100% (CSNK1E (Homo sapiens, UniProt P49674); binding, competition with immobilised ligand).
KIT (Homo sapiens, UniProt P10721, T670I/V559D); binding, competition with immobilised ligand — remaining binding: 83%.
The remaining binding was 100% (PDPK1 (Homo sapiens, UniProt O15530); binding, competition with immobilised ligand).
The remaining binding was 89% (NEK2 (Homo sapiens, UniProt P51955); binding, competition with immobilised ligand).
It gave 99% for remaining binding (Tyrosine-protein kinase JAK1, JH2 (JAK1, Homo sapiens, UniProt P23458); binding, competition with immobilised ligand).
It gave 100% for remaining binding (Tyrosine-protein kinase ABL1, non-phosphorylated (ABL1, Homo sapiens, UniProt P00519, T315I); kinase binding, KINOMEscan; baseline: DMSO control).

Other studies, line by line
With `Cc1ccc(O)c(C)c1-c1cnc2[nH]c(-c3cnc(N4CCC(CN5CCN(c6ccc7c(c6)CN(C6CCC(=O)NC6=O)C7=O)CC5)CC4)nc3)cc2c1C#N` (stereo not drawn) the Cmax was 279 ng/mL (female CD-1 mouse, plasma; oral, 10 mg/kg).
`Cc1ccc(O)c(C)c1-c1cnc2[nH]c(-c3cnc(N4CCC(CN5CCN(c6ccc7c(c6)C(=O)N(C6CCC(=O)NC6=O)C7=O)CC5)CC4)nc3)cc2c1C#N` (stereo not drawn): plasma concentration “not detected” (CD-1 mouse; oral, 10 mg/kg, 24 h).
For `Cc1ccc(O)c(C)c1-c1cnc2[nH]c(-c3cnc(N4CCC(CCN5CCN(c6ccc(NC7CCC(=O)NC7=O)cc6F)CC5)CC4)nc3)cc2c1C#N` (stereo not drawn), the Cmax was 249 ng/mL (female CD-1 mouse, plasma; oral, 10 mg/kg).
`Cc1ccc(O)c(C)c1-c1cnc2[nH]c(-c3cnc(N4CCC(CCN5CCN(c6ccc(N7CCC(=O)NC7=O)cc6F)CC5)CC4)nc3)cc2c1C#N`: “pCDK1 (Thr14) level” 13.4 RLU and 17 RLU (HCC1569; in-cell western, item: CDK1 phospho-Thr14; 13.72 nM).
